Measurements gathered from unrelated publications.
Parts stem from different laboratories: compare values within a part only.

Series 1 — method: protein-binding microarray; molecule type: double-stranded DNA, one strand shown; medium: in vitro; tested at: 2200 nM top; notes: 60-bp whole probe; together with: salmon DNA 0.4 mg/ml; relative to: random background probes; direction: higher = stronger binding
Target: Interferon regulatory factor 7, full length, phosphomimetic (IRF7, Homo sapiens, UniProt Q92985, residues 1-503, S471D/S472D/S475D/S476D/S477D/S483D/S484D/S487D)
UniProt Q92985, sequence (whole entry, unmodified, looked up): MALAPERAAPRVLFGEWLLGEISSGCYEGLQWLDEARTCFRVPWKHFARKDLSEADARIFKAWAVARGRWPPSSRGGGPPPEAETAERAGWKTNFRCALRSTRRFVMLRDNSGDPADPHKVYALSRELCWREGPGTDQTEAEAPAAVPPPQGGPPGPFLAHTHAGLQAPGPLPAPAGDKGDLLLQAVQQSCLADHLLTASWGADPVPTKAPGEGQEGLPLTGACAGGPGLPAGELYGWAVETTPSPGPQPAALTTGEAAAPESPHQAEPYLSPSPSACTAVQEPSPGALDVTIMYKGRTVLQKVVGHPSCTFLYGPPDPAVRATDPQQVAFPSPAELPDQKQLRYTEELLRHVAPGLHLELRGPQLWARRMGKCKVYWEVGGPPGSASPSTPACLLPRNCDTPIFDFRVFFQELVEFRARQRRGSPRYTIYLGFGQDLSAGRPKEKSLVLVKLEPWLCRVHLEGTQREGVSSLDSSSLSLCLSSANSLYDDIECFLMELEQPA
Strand | fitted relative affinity
GCCTAGCACTGTGCTTTCCTCGTGATGCTGTGCTAGGTCTTGATTCGCTTGACGCTGCTG | 1.69 z-score
GCCTAGCACTTAGATATTGGGACTGGATTAGTGCTAGTCTTGATTCGCTTGACGCTGCTG | -0.473 z-score
GCCTAGCACTTAGATATCGAGACTGGATTAGTGCTAGTCTTGATTCGCTTGACGCTGCTG | -0.52 z-score
GCCTAGCACGACGAACTGAGTTACGAGACGTGCTAGGTCTTGATTCGCTTGACGCTGCTG | -0.183 z-score

Series 2 — method: RNA Bind-n-Seq; molecule type: RNA; medium: in vitro; tested at: 365 nM; relative to: no-protein control; direction: higher = stronger binding
Target: RNA binding protein fox-1 homolog 2, RRM domain, GST-SBP tag (RBFOX2, Homo sapiens, UniProt O43251-10, residues 100-194)
Notes: natural RNA segment, single round, ends assumed
Shared flanks, not repeated: GGGAGUUCUACAGUCCGACGAUC … UGGAAUUCUCGGGUGCCAA
Construct (chain): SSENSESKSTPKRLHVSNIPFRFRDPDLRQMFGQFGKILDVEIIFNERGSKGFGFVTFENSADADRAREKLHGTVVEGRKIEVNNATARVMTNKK
Strand | RBNS enrichment (R)
CUGUGGUUAUGAAAAUUAGGCCAAGUGAUUUUAUUCCAAAUAUUAUUUAGUUGCCCUCAUUGGGAUCUCCUUUCUGUAAUUCAUCUUGGUUUACUUGAAAAUAAAUAUUU | 0.682
CUGGGACGCUGUACGCAAUUCAGUGGUCUAGUCCUUUAUACCGACUCAGAUUCCUUAAGCAUGCAGAGUCACUCGAAUGAAAAAACAUACUCGACCUCUCCCUAAAAAGA | 4.62
CAGGUCAGAGAUGUCCCCUGCCAUGCAGAGCAGGAAGCCUCAGCUGGGCCUGGAGUGUCCCUGCUCCAGCCCUGCCAGGGACAGGUUUCUCCCUGGAUACUCUUGGCCCA | 0.218
CUAAAAAUAGACCCUUUCUUCCCAAAGGUUGGGAGGUGGGACCUGAGCAGUGGAGUGAAGCCACACCCCACAAUUUUUUAUUUAUUUUUUUAUUUUUAGAUAGGGUUUCA | 0.664
GCCUCUGAAGUUUGCAGUAUGCUUUCAAAUGAAAUAAUAUACUUCCAUUGAUUCAGGAAGCAGAUUUUUUGAGUGCCUAUAUGUGAGACAGUGUGCUGGUUGAAGGCCUG | 0.304

Series 3 — method: universal PBM; molecule type: double-stranded DNA, one strand shown; medium: in vitro; tested at: not given; direction: higher = stronger binding
Target: Sal-like protein 4, full length isoform B (SALL4, Homo sapiens, UniProt Q9UJQ4-2, residues 1-616)
Notes: 8-mer, flanks averaged, mean of replicates
Strand | E-score
AGTATTTC | 0.174
GCTTTACC | 0.00977
AAGCTACG | -0.0464
ATACAAAG | 0.289

Further values, each from its own experiment
Molecule | target | assay | test system | conditions | scale | quantity | value
PhoQ, residues 284 288 289 292 302 303 SASVAL | PhoP, residues 12 14 15 18 19 NNFVT (Escherichia coli, UniProt P23836) | Sort-seq, measured: YFP reporter | E. coli | PhoQ-PhoP variant library, together with: 10 µM Mg2+ | relative to: high Mg2+ state, higher = stronger signaling | fold induction | 1.7

Excerpt of the above (series 3):
Strand | E-score
AGTATTTC | 0.174
